# Published values gathered from unrelated publications.
# A part holds a random share of what one study measured.
# UniProt P29320, sequence (whole entry, looked up): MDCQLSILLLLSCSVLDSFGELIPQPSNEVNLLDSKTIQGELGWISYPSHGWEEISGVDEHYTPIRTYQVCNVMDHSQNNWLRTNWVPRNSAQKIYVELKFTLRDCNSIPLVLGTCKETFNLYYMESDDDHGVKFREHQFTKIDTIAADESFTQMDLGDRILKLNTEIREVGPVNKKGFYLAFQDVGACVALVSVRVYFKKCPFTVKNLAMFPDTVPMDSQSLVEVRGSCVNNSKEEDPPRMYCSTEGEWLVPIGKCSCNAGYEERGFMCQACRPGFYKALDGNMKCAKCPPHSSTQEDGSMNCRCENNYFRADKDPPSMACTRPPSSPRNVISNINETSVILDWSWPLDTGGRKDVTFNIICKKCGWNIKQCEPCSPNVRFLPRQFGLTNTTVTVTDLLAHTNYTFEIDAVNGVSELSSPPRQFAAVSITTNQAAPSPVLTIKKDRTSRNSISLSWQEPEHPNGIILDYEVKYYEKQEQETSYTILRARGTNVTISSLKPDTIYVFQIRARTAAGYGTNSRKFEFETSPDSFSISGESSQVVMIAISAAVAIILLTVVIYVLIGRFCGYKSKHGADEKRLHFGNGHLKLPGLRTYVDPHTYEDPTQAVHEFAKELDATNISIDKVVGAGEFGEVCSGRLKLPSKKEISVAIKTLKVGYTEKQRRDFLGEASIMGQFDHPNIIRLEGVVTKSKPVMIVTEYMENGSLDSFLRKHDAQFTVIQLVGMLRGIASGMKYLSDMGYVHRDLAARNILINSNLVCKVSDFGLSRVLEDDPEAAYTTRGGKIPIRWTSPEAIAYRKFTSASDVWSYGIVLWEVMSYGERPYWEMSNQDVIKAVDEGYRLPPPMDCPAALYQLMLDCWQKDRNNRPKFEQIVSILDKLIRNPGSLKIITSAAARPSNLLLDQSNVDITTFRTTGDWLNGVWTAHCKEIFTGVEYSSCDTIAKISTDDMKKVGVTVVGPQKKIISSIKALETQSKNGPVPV
# UniProt Q02763, sequence (whole entry, looked up): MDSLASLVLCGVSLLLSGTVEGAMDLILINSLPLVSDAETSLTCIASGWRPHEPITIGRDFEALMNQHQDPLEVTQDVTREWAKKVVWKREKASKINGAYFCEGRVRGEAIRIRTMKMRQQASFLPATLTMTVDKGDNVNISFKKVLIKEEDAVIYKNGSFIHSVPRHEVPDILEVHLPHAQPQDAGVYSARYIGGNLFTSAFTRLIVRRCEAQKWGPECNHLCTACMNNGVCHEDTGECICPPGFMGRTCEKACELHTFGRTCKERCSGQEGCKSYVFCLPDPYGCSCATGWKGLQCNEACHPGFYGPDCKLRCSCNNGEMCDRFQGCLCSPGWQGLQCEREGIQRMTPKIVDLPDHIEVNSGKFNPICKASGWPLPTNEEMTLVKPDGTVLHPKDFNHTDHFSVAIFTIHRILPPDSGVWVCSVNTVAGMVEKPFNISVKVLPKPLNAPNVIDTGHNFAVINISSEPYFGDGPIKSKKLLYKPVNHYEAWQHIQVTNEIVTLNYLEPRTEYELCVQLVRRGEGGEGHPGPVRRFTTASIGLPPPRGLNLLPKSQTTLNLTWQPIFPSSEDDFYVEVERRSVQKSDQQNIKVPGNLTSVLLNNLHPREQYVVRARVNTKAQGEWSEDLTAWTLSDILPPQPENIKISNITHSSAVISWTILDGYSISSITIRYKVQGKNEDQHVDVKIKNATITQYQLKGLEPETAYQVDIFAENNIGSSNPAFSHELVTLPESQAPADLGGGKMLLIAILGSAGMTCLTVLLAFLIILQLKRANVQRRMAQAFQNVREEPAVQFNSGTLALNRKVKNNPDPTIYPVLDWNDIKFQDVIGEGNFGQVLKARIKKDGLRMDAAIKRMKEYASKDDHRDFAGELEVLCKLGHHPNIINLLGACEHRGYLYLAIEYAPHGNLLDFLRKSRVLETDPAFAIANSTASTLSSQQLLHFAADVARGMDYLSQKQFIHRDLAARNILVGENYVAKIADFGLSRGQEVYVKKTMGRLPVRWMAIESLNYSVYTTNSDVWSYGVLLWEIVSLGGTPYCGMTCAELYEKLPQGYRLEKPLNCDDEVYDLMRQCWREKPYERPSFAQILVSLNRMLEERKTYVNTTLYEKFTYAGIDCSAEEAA
# UniProt P52333, sequence (whole entry, looked up): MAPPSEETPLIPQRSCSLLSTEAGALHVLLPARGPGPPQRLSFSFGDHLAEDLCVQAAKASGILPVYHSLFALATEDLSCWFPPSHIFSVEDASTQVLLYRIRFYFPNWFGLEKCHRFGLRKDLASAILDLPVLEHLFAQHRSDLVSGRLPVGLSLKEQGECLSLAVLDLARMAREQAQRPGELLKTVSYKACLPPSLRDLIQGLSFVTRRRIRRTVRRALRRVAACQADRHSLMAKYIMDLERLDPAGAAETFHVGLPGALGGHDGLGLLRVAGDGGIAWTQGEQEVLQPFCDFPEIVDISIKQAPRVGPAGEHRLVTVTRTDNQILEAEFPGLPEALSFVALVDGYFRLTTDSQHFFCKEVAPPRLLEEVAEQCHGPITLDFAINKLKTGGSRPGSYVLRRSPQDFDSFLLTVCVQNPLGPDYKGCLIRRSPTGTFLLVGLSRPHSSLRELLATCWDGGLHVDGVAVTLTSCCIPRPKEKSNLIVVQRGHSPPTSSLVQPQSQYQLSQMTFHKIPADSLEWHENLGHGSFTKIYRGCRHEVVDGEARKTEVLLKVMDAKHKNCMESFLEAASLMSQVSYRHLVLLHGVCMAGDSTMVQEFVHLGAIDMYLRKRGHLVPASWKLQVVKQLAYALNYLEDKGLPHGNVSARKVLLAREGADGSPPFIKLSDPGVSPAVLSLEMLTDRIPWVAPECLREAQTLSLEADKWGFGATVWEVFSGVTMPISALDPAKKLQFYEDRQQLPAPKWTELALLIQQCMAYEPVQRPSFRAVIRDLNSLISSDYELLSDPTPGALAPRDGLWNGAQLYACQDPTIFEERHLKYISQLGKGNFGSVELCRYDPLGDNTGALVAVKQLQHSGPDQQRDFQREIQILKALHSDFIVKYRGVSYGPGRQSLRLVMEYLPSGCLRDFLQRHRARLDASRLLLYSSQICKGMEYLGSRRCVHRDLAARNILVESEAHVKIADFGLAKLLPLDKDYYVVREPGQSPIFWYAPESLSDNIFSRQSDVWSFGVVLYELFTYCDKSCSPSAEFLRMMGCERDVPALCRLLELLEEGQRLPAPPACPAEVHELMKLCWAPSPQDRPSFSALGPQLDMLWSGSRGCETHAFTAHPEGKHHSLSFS
# UniProt Q9HC98, sequence (whole entry, looked up): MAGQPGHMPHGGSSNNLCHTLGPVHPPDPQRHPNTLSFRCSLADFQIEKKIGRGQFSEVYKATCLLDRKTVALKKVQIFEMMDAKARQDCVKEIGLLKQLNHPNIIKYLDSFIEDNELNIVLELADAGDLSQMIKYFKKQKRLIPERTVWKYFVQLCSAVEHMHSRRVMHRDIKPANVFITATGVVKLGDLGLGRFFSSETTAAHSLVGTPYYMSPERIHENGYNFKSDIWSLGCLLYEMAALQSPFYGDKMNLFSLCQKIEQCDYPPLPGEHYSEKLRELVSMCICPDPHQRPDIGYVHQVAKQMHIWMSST
# UniProt P30291, sequence (whole entry, looked up): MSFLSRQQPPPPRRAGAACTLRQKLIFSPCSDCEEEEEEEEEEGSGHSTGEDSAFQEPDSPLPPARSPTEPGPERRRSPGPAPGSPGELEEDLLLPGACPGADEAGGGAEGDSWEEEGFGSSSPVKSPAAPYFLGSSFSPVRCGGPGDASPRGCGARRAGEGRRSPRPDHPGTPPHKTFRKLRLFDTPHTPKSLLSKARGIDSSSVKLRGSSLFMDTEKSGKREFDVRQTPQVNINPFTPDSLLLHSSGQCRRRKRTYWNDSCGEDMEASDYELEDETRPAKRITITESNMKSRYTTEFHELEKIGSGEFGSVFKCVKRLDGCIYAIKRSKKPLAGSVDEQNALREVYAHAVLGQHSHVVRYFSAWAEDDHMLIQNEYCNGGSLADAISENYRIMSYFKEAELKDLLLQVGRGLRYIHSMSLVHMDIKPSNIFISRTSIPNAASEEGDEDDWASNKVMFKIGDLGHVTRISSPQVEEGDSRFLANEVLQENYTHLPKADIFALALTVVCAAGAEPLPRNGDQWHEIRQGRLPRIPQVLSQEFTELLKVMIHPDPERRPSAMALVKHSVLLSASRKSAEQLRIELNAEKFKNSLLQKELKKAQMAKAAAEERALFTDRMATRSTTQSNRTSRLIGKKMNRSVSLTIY
# UniProt P49137, sequence (whole entry, looked up): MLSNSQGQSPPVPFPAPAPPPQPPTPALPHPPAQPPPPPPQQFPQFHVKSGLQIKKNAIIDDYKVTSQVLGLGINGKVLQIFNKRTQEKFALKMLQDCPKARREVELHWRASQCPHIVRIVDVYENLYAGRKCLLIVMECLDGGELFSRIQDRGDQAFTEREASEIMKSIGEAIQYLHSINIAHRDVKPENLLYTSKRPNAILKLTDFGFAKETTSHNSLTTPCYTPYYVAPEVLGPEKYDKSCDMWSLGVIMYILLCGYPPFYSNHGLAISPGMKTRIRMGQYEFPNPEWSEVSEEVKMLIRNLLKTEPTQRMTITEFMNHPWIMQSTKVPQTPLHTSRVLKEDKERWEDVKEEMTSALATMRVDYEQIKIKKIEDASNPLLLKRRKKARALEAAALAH

# Study 1 — observed: enzyme activity; action: inhibitor; tested at: 0.5 µM; baseline: control
# Compound: COc1ccc(CNC(=O)Nc2ncc([N+](=O)[O-])s2)cc1
target,remaining activity [%]
"Angiopoietin-1 receptor (TEK, Homo sapiens, UniProt Q02763)",94
"Wee1-like protein kinase (WEE1, Homo sapiens, UniProt P30291)",95.2
"MAP kinase-activated protein kinase 2 (MAPKAPK2, Homo sapiens, UniProt P49137)",112
"Serine/threonine-protein kinase Nek6 (NEK6, Homo sapiens, UniProt Q9HC98)",100
"Serine/threonine-protein kinase Nek1 (NEK1, Homo sapiens, UniProt Q96PY6)",94.3
"Ephrin type-A receptor 3 (EPHA3, Homo sapiens, UniProt P29320)",111
"Macrophage-stimulating protein receptor (MST1R, Homo sapiens, UniProt Q04912)",98.4
"Fibroblast growth factor receptor 3 (FGFR3, Homo sapiens, UniProt P22607)",108
"Tyrosine-protein kinase Mer (MERTK, Homo sapiens, UniProt Q12866)",91.2
"Tyrosine-protein kinase JAK3 (JAK3, Homo sapiens, UniProt P52333)",105

# Study 2 — method: EMSA with sequencing; molecule type: double-stranded DNA, one strand shown; medium: in vitro; tested at: 10 and 20 nM; baseline: negative control set to 0; direction: higher = stronger binding
# Target: Hepatocyte nuclear factor 3-alpha (Foxa1, Mus musculus, UniProt P35582, residues 1-468, full length assumed)
# UniProt P35582, sequence (whole entry, looked up): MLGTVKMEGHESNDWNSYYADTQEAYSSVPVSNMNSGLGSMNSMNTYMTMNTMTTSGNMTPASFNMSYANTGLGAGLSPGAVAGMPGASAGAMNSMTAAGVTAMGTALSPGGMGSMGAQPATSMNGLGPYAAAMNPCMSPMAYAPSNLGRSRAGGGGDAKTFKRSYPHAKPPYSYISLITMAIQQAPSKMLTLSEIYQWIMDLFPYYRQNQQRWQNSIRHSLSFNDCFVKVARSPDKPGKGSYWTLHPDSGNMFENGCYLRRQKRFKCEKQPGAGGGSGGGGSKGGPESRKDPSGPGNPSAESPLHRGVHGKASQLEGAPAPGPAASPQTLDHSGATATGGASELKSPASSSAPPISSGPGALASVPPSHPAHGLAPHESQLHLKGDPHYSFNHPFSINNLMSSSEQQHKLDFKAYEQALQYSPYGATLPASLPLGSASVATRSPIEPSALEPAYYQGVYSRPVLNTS
# Setting: whole designed probe, mean of two concentrations, ends assumed
# Constant ends, left off below: GTGAGCGGTGCCCATTGATGGGGAAC … TTTCACTGGGATCGTGGGGAC
Strand,normalised bound fraction
TCTAGTGCTCACAGAACGGCATCGCCGCGGCTCTTCTTCGCTGTGTGTCTGTGCCAAGTCTATCCAACGCCGCCAAAGTCCCCTCTGCTCTCAGCAAACACAGGTGAAGCTCTTGCCTTCTTAAATCCTTGACTTGACCTTGCTGTCCCATAAGTCCTGAATTTCTCCTTTTCACGAGGAAGCTCTTGGAACA,0.0617 ratio
ATCTTCCCCCTCTTCCTTGCCCCACCAGCTCACCTTCCCGGGTTATTTGCACAAAGGAAAATAAATAAAGCCGGCATTCGTTAACGCAGTTCACGCGCATACTGCTGTTTGCTCTGGATGAATCATGGTCCTTTGGCGACGCCAGGCTCCGGGAGAGCAAAGCACCGTGTCAGGGCCATGATCCGGGCTCGCC,0.38 ratio
TGTTTTTAAATGGAGTTTAAAATAAACTGTTAAGAGCTCTGTTAAACTCCGGGCTTAGAGTATATTCTATTTTGGGATATTATTACTCAGTATGTAATCTAGCTGTACCAAGATAAACTGTACAAGATTTCATAATTCCTTGCTGCTCAAGAATAGCAGCTGGTTGCTGCAAAAATTTCAGTTTCCCCCCTAT,-0.0276 ratio
TTTAGCTGTTTGAATATAATATGTTTACGTTTACTCCTCTTCTTCCTCCTGCCTCCCTTTCTCTTCCTTCTTTCTCTTATTTTTCTTCTATCCTGTTTGCTCTTCTTAGGTTAATGAATGTAGTTTGGTGTCATTATTTTTAAAAACTCTGAGCAACCATCCTTACAAATACTGTTTCTGCCCTGTTCTCTCC,0.16 ratio
TGAGCGATGGGTCGAGTTGGCTTACTAAATTGTGGTAGAAATGAGTGTTATAGCTGAATTCACTTGGTAATTAGCACTTGCATTTACAGATTATGTAAACAAGCAATAGATTCAGGTTTGCACAGACTTAGTGATAGAATCCGGTTGCTAGACTCTTAGCCCAACAGGCTTTCCATCACACAATGAGAACAAG,0.415 ratio
AATTTAGCCTAAGTCTGCCTCCTTACATATTAATATTTTAAGTTTGGCCTAAAGGTTTCCCCTTACAAAGTAAACTGCAGCCTAACTAGCTGTGTAAACACACTATTCTTAACACCAATCACAGATTTTCAGCAAGTCACAGGAAGTCAGCTGTTAACAAACTTTAAATAAAGCAAACACCAAGCTGTAAGCA,0.441 ratio
ACTGCTCACCACAGTTTTAAAGCTTTGCCTCTACCTGAAAACCAAACTGGATATGCAGTTAAGTGGAGAATTTAATCTTCCTTTAAAGACAATGCAATCTATTGGTGCCCCTTTAAAACTCGCTTTCTTGTTGAAAGTGAATATTTCTTTTGGATCATTCAAAAACTTCAAGTTTCTTCTGTGATTGTGTACA,0.0213 ratio
TAAACAAAGCTGGTCGCCCAATGAAGAGGCGGCGGGGGCGGGCGCTGGGCCGGGGAGGCCGGGGGCGGAGCCGGGGGCGGGGCGACCGGGCGGTGTTTACAGACCGGCTCATCGCGCTTCCGGTTGACGTTGCTGACAGCTAGTGAGGCTTTAGCCCGCTTCGAGCGCCTCGGCGCGGTAAGGCGCGATCATA,0.462 ratio

# Study 3 — organism: Sarcocystis neurona; observed: parasite activity; tested at: 10 µM; time: 96 h
Compound,activity class
CC(C)(C)NC(=O)[C@@H]1C[C@@H]2CCCC[C@@H]2CN1C[C@@H](O)[C@H](Cc1ccccc1)NC(=O)[C@H](CC(N)=O)NC(=O)c1ccc2ccccc2n1,inactive
CC1(C)S[C@@H]2[C@H](/N=C/N3CCCCCC3)C(=O)N2[C@H]1C(=O)O,inactive
Cc1cccc(Nc2ccncc2S(=O)(=O)NC(=O)NC(C)C)c1,inactive

# Study 4 — observed: cell-free assay; method: competition with immobilised ligand; tested at: 1 µM
# SMILES: CN(C)CC#Cc1ccc(OCCCc2sc(N3CCc4cccc(C(=O)Nc5nc6ccccc6s5)c4C3)nc2C(=O)O)c(F)c1
target,remaining binding [%]
"Tyrosine-protein kinase HCK (HCK, Homo sapiens, UniProt P08631)",100
"Serine/threonine-protein kinase haspin (HASPIN, Homo sapiens, UniProt Q8TF76)",100
"Serine/threonine-protein kinase Nek5 (NEK5, Homo sapiens, UniProt Q6P3R8)",87

# Other studies, line by line — cell line: A-375; tested at: 100 µM; time: 18 h
Structure (SMILES),viability [%]
Oc1c(I)cc(Cl)c2cccnc12,35.2
OC1(c2ccc(Cl)c(C(F)(F)F)c2)CCN(CCCC(c2ccc(F)cc2)c2ccc(F)cc2)CC1,10.1

# Some of these lines once more (study 3):
Compound,activity class
CC(C)(C)NC(=O)[C@@H]1C[C@@H]2CCCC[C@@H]2CN1C[C@@H](O)[C@H](Cc1ccccc1)NC(=O)[C@H](CC(N)=O)NC(=O)c1ccc2ccccc2n1,inactive
CC1(C)S[C@@H]2[C@H](/N=C/N3CCCCCC3)C(=O)N2[C@H]1C(=O)O,inactive
Cc1cccc(Nc2ccncc2S(=O)(=O)NC(=O)NC(C)C)c1,inactive
